Assay results pooled from the literature.
“And” joins repeats or separate records; there may be more than shown.

| Structure (SMILES) | assay | system | conditions | how to read | measurement | result |
| --- | --- | --- | --- | --- | --- | --- |
| C[C@H]1O[C@@H](O[C@H]2CC[C@@]3(C)[C@@H](CC[C@]4(C)[C@@H]3C=C[C@]35OC[C@@]6(CCC(C)(C)C[C@H]63)[C@@H](O)C[C@]54C)[C@]2(C)CO)[C@H](O)[C@@H](O[C@@H]2O[C@H](CO)[C@@H](O)[C@H](O)[C@H]2O)[C@H]1O |  | Mus musculus, chronic-plus-binge ethanol-fed, AAV8-TBG-Null vector, plasma | oral, high dose, 5 h |  | γ-GT activity | 26.8 U/L and 25.8 U/L and 32.6 U/L and 26.4 U/L |
| CC[C@H](C)[C@@H]1NC(=O)[C@@H]2CCCN2C(=O)[C@H](CC(C)C)NC(=O)[C@H](CC(C)C)NC(=O)CNC(=O)[C@@H](NC(=O)[C@@H](NC(=O)[C@H](CC(=O)O)NC(=O)CNC(=O)[C@@H](NC(=O)[C@H](C)NC(=O)CNC(=O)[C@H](CCCCN)NC(=O)[C@H](CC(C)C)NC(=O)[C@H](CC(C)C)NC(=O)[C@H](CCCCN)NC(=O)CNC(=O)[C@@H](NC(=O)[C@@H](N)CC(C)C)C(C)C)C(C)C)C(C)C)CSSC[C@@H](C(=O)O)NC1=O | RNA-seq, measured: Fgr mRNA | mouse traumatic brain injury, frontal cortex and hippocampus | dose not given | relative to: TBI plus compound vs TBI | log2 fold change | -2.74 |
| CCCCC1(CCCC)CN(c2ccccc2)c2cc(SC)c(OCC(=O)N[C@@H](C(=O)NCC(=O)O)c3ccccc3)cc2S(=O)(=O)C1 | measured: HDL cholesterol | human, serum | 5 mg once daily, day 7 |  | serum HDL-C | 47.6 mg/dL |
| CC[C@H](C)[C@H](NC(=O)[C@H](CCCNC(=N)N)NC(=O)[C@H](CO)NC(=O)[C@H](Cc1ccc(O)cc1)NC(=O)[C@@H](NC(=O)[C@@H](NC(=O)[C@H](C)NC(=O)CNC(=O)[C@H](CCCCN)NC(=O)[C@@H](N)CCCCN)C(C)C)[C@@H](C)O)C(=O)N[C@@H](CO)C(=O)NCC(=O)N[C@@H](CCC(N)=O)C(=O)N[C@@H](Cc1ccc(O)cc1)C(=O)N[C@@H](CCCCN)C(=O)O | broth microdilution | 29213, Mueller-Hinton broth | 16 to 18 h, 37 °C |  | MIC | > 96 µM |
| CN(C)C(=O)c1cc2cnc(Nc3ccc(N4CCNCC4)cn3)nc2n1C1CCCC1 |  | HR+/HER2− advanced breast cancer patients | dose not given, region other |  | median PFS2 | 50.6 months |
| Cc1nc(Nc2ccc(CC(=O)O)cc2)nc(Nc2ccc(F)c(C(F)(F)F)c2)c1C |  | C57BL/6J mouse, high-fat diet MASH model, white adipose tissue | intraperitoneal, 0.3 mg/kg daily, 60% fat diet for 12 weeks, dosed final four weeks | relative to: untreated | fibrosis | decreased |
| CN1CCN(S(=O)(=O)c2cc([N+](=O)[O-])ccc2N(CCOS(C)(=O)=O)CCOS(C)(=O)=O)CC1 |  | NSG mice, sample CE PDX | intraperitoneal, 25 mg/kg weekly x3 | relative to: treated over vehicle | EFS ratio (T/C) | > 3.2 |
| NCCc1ccccc1 | binding, MIDAS equilibrium dialysis LC-MS | A2AR-BRIL thermostabilized | concentration not given | relative to: no-protein control | log2 fold change | 0.4 |

For quick reference, copied from above:
| Structure (SMILES) | assay | system | conditions | how to read | measurement | result |
| --- | --- | --- | --- | --- | --- | --- |
| CC[C@H](C)[C@@H]1NC(=O)[C@@H]2CCCN2C(=O)[C@H](CC(C)C)NC(=O)[C@H](CC(C)C)NC(=O)CNC(=O)[C@@H](NC(=O)[C@@H](NC(=O)[C@H](CC(=O)O)NC(=O)CNC(=O)[C@@H](NC(=O)[C@H](C)NC(=O)CNC(=O)[C@H](CCCCN)NC(=O)[C@H](CC(C)C)NC(=O)[C@H](CC(C)C)NC(=O)[C@H](CCCCN)NC(=O)CNC(=O)[C@@H](NC(=O)[C@@H](N)CC(C)C)C(C)C)C(C)C)C(C)C)CSSC[C@@H](C(=O)O)NC1=O | RNA-seq, measured: Fgr mRNA | mouse traumatic brain injury, frontal cortex and hippocampus | dose not given | relative to: TBI plus compound vs TBI | log2 fold change | -2.74 |
